# Assay results from different studies.
# Numbered parts are unrelated; each lists some results of a single study.
# Sequence of UniProt P15735 (whole entry, looked up): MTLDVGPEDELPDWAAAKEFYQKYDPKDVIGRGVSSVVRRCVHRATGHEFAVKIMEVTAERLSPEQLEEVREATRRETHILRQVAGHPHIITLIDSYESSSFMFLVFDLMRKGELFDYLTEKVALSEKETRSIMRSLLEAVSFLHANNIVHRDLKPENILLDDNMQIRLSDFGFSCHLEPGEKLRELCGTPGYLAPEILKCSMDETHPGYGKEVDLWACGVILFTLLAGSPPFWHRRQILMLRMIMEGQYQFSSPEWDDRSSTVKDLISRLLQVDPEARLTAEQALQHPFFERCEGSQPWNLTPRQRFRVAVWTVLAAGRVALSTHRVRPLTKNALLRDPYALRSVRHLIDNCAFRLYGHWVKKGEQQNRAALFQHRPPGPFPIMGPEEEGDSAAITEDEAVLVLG
# Sequence of UniProt Q9Y2H9 (whole entry, looked up): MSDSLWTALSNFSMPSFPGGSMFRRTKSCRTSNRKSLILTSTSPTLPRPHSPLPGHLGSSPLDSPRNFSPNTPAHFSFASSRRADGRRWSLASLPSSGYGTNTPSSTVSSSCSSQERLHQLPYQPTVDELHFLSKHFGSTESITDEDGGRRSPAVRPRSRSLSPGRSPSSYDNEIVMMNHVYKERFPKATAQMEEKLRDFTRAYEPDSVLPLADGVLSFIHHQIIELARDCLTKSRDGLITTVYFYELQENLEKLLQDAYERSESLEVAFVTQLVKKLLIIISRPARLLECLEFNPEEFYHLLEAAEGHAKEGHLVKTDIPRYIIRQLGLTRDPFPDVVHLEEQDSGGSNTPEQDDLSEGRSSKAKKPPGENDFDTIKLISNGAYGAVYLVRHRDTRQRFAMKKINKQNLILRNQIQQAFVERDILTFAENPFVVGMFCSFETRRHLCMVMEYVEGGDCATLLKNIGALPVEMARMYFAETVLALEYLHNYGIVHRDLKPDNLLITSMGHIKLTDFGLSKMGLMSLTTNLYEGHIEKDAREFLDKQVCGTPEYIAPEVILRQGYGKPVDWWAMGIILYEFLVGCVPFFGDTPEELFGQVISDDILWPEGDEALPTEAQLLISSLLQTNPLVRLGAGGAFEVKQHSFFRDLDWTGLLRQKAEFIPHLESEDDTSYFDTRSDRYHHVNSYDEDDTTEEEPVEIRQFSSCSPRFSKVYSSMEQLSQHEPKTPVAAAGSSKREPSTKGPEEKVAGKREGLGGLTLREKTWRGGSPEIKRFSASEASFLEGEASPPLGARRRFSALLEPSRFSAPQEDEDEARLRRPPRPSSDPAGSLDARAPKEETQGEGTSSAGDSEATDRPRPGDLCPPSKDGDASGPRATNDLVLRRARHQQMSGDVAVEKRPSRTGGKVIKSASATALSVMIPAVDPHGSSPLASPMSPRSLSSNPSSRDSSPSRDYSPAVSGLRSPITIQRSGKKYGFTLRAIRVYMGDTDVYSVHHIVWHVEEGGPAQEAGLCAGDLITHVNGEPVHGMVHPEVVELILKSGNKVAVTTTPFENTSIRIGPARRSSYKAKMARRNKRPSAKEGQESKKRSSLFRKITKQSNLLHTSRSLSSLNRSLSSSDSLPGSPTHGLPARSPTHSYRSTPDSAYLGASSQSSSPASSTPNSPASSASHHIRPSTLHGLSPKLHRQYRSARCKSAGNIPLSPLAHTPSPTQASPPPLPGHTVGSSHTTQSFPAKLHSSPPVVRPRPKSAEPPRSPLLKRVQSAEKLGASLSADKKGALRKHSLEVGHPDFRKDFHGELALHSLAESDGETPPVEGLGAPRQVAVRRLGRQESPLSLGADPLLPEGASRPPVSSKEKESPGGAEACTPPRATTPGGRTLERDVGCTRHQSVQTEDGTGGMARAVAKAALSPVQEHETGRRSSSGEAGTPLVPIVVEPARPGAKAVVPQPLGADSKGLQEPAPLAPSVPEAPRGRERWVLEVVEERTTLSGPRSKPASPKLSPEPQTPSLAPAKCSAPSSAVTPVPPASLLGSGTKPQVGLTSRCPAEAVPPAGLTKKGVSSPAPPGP
# Sequence of UniProt Q9NWZ3 (whole entry, looked up): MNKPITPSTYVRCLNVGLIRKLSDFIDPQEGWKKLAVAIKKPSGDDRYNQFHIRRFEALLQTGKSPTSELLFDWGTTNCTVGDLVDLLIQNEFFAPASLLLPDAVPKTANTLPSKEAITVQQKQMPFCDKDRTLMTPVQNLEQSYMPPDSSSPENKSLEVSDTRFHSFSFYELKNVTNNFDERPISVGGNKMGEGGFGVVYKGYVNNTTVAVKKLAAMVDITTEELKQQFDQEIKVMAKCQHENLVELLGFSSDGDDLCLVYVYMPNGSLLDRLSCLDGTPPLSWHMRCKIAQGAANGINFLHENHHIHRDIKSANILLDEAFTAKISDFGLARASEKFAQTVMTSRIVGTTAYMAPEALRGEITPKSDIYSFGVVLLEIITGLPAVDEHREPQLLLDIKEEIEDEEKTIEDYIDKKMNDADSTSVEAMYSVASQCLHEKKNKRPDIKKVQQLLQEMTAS

# Block 1
# Cell line: Huh-7
# Tested at: 10 µM
# Time: 24 h
Compound,viability [%]
Cc1cc(C)nc(NS(=O)(=O)c2ccc(N)cc2)n1,103
Nc1nc(N)c2nc(-c3ccccc3)c(N)nc2n1,75.3
O=C1NCC2(CCN(CCc3ccccc3)CC2)O1,98.3
CC(=O)N(c1onc(C)c1C)S(=O)(=O)c1ccc(N)cc1,97
COc1cc(C(=O)N2CCOCC2)cc(OC)c1OC,103

# Block 2
# Target: Calcium/calmodulin-dependent protein kinase type II subunit alpha (CAMK2A, Homo sapiens, UniProt Q9UQM7)
# Sequence of UniProt Q9UQM7 (whole entry, looked up): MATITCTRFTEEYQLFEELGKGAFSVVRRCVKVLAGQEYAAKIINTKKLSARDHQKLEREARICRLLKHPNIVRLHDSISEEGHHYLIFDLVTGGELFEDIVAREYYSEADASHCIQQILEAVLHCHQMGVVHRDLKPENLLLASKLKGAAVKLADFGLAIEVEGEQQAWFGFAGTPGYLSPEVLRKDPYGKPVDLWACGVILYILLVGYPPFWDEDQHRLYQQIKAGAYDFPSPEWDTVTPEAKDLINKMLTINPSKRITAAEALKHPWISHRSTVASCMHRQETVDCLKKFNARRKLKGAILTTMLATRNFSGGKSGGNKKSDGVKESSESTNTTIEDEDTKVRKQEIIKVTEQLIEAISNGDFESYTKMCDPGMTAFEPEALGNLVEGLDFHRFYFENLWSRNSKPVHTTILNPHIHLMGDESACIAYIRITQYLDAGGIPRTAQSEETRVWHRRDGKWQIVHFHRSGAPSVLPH
# Effect on: enzyme activity
# Mode: inhibitor
# Tested at: 10 µM
SMILES,inhibition [%]
O=c1cc(-c2ccccc2)oc2c1ccc1ccccc12,13
CC[C@H]1OC(=O)[C@H](C)C(=O)[C@H](C)[C@@H](O[C@@H]2O[C@H](C)C[C@H](N(C)C)[C@H]2O)[C@](C)(OC)C[C@@H](C)C(=O)[C@H](C)[C@H]2N(CCCCn3cnc(-c4cccnc4)c3)C(=O)O[C@]12C,1
CCCCCCCCCCCC(=O)OCN1C(=O)CCc2ccc(OCCCCN3CCN(c4cccc(Cl)c4Cl)CC3)cc21,-4
C[C@H]1CC[C@@H]2N(C1)C[C@H]1[C@@H]3C[C@H]4[C@@H](CC(=O)[C@H]5C[C@@H](O[C@@H]6O[C@H](CO)[C@@H](O)[C@H](O)[C@H]6O)CC[C@@]54C)[C@@H]3CC[C@@H]1[C@]2(C)O,13
C[C@H](CC(=O)C[C@@H](C)[C@H]1CC(=O)[C@@]2(C)C3=C(C(=O)C[C@]12C)[C@@]1(C)CC[C@H](O)C(C)(C)[C@@H]1C[C@@H]3O)C(=O)O,-9
O=c1cc[nH]c(=O)[nH]1,12
CCCCCCCN(CC)CCCC(O)c1ccc(NS(C)(=O)=O)cc1 (stereo not shown),-3
CC1(C)C=Cc2c(-c3c4c(c5ccccc5c3O)OC(C)(C)C=C4)c(O)c3ccccc3c2O1,-30

# Block 3
# Target: Protein kinase C alpha type (PRKCA, Homo sapiens, UniProt P17252)
# Effect on: enzyme activity
# Mode: inhibitor
# Tested at: 0.5 µM
# Relative to: control
Structure (SMILES),remaining activity [%]
N#CC(C#N)=C(N)/C(C#N)=C/c1ccc(O)cc1,97.4
CC(C)[C@H](CO)Nc1nc(Nc2cc(N)cc(Cl)c2)c2ncn(C(C)C)c2n1,66.1
O=C(O)c1ccc2c3c1cccc3c(=O)n1c3ccccc3nc21,101
Oc1ccc(-c2nc(-c3ccncc3)c(-c3ccc(F)cc3)[nH]2)cc1,102
OCC(O)CCON=C1C(c2c(O)[nH]c3ccccc23)=Nc2ccccc21 (stereo not shown),101
Nc1[nH]nc2nc3ccccc3nc12,71
O=S(=O)(c1cccc2cnccc12)N1CCCNCC1,94.8
COc1ccc(OC)c2c(=S)c3ccccc3[nH]c12,95.7
O=C(Nc1cccc(Nc2cc(Nc3cccc(C(F)(F)F)c3)ncn2)c1)C1CC1,101
Cc1ccc(Nc2nccc(N(C)c3ccc4c(C)n(C)nc4c3)n2)cc1S(N)(=O)=O,94.4
COc1cc2ncnc(Nc3ccc(Oc4ccccc4)cc3)c2cc1OC,101
O=C1NC(=O)C(c2cn(CCCO)c3ncccc23)=C1c1cnccn1,91.1
COc1ccc(CNC(=O)Nc2ncc([N+](=O)[O-])s2)cc1,61.9
COc1cc2ncnc(Nc3ccc(F)c(Cl)c3)c2cc1OCCCN1CCOCC1,93.6
CN(C)c1ccc(C=C2C(=O)Nc3ccccc32)cc1,94.5

# Block 4
# Structure (SMILES): CSc1cccnc1N1CCN(Cc2nc3ccccc3[nH]2)CC1
# Effect on: cell-free assay
# Method: competition with immobilised ligand
# Tested at: 1 µM
target,remaining binding
"IRAK4 (Homo sapiens, UniProt Q9NWZ3)",74%
"MAST1 (Homo sapiens, UniProt Q9Y2H9)",100%
"EGFR (Homo sapiens, UniProt P00533)",100%
"TGFBR2 (Homo sapiens, UniProt P37173)",99%
"CLK3 (Homo sapiens, UniProt P49761)",85%
"PHKG2 (Homo sapiens, UniProt P15735)",100%

# For quick reference, copied from above (block 2):
SMILES,inhibition [%]
CC[C@H]1OC(=O)[C@H](C)C(=O)[C@H](C)[C@@H](O[C@@H]2O[C@H](C)C[C@H](N(C)C)[C@H]2O)[C@](C)(OC)C[C@@H](C)C(=O)[C@H](C)[C@H]2N(CCCCn3cnc(-c4cccnc4)c3)C(=O)O[C@]12C,1
CC1(C)C=Cc2c(-c3c4c(c5ccccc5c3O)OC(C)(C)C=C4)c(O)c3ccccc3c2O1,-30
CCCCCCCN(CC)CCCC(O)c1ccc(NS(C)(=O)=O)cc1 (stereo not shown),-3
C[C@H]1CC[C@@H]2N(C1)C[C@H]1[C@@H]3C[C@H]4[C@@H](CC(=O)[C@H]5C[C@@H](O[C@@H]6O[C@H](CO)[C@@H](O)[C@H](O)[C@H]6O)CC[C@@]54C)[C@@H]3CC[C@@H]1[C@]2(C)O,13
O=c1cc[nH]c(=O)[nH]1,12
